Assay results collected from several papers.
Every numbered part comes from another study and shows a few of its results, in no order.
Chain of UniProt Q8WTQ7 (whole entry, looked up): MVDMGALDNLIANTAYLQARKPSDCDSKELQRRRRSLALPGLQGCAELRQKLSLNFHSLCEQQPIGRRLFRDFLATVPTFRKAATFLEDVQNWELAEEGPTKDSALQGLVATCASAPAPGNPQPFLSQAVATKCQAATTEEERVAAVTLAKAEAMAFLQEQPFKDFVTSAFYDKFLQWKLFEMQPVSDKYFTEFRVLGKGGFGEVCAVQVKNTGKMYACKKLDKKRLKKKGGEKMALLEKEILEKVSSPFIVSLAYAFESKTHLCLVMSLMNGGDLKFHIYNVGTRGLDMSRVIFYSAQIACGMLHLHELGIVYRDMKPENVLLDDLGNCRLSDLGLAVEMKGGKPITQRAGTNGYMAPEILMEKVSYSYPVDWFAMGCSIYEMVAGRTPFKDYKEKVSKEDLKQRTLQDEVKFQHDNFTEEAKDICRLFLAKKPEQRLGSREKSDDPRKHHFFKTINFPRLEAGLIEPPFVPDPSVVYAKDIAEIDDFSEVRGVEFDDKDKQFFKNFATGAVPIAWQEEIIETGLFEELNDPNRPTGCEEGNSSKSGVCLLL
Chain of UniProt Q9UKE5 (whole entry, looked up): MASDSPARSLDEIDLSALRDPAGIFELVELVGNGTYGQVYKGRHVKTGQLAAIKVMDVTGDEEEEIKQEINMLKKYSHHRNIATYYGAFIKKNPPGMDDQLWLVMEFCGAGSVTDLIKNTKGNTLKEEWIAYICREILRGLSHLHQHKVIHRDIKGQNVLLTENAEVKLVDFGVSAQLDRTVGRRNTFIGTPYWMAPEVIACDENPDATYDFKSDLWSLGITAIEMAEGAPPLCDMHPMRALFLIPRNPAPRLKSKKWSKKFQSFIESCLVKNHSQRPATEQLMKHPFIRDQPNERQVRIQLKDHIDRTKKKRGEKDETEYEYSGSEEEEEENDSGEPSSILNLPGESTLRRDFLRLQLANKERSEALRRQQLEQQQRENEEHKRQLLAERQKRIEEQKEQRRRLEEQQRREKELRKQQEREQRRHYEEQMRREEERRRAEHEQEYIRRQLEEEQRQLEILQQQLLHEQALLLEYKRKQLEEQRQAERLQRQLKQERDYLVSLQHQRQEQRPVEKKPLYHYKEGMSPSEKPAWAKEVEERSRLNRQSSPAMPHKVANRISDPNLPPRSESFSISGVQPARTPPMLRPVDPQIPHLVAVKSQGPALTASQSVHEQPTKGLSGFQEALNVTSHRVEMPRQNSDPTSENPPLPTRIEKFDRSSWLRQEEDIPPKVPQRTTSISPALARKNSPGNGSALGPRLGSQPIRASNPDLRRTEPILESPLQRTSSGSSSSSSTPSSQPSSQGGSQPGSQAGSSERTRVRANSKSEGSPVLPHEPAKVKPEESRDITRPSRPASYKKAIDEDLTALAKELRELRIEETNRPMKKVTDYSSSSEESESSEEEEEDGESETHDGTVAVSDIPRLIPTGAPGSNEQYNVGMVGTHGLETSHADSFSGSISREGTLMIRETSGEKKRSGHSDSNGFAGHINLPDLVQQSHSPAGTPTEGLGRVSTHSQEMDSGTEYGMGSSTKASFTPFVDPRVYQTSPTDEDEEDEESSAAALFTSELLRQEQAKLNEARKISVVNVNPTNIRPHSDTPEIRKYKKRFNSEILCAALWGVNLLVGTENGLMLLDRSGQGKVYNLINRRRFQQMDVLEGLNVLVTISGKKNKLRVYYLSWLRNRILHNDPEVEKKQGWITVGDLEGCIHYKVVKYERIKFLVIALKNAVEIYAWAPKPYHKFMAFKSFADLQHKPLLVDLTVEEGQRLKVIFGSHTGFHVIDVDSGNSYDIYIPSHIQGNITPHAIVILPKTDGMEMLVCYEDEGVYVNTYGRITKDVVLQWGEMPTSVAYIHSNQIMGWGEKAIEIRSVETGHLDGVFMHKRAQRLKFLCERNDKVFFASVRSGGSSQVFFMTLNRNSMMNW
Chain of UniProt Q9NWZ3 (whole entry, looked up): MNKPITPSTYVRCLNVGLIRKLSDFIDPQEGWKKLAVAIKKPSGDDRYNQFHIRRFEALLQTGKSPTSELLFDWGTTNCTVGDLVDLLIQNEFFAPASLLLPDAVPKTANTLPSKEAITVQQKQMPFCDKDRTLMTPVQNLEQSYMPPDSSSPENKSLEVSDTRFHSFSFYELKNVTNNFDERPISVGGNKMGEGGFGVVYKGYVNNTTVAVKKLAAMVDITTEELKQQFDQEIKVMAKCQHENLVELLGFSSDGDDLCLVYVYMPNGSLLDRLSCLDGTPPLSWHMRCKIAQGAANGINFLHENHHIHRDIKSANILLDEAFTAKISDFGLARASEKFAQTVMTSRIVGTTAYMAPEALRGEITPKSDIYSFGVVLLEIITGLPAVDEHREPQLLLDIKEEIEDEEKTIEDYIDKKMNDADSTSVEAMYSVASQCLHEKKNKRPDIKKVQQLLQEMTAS
Chain of UniProt Q9UKI8 (whole entry, looked up): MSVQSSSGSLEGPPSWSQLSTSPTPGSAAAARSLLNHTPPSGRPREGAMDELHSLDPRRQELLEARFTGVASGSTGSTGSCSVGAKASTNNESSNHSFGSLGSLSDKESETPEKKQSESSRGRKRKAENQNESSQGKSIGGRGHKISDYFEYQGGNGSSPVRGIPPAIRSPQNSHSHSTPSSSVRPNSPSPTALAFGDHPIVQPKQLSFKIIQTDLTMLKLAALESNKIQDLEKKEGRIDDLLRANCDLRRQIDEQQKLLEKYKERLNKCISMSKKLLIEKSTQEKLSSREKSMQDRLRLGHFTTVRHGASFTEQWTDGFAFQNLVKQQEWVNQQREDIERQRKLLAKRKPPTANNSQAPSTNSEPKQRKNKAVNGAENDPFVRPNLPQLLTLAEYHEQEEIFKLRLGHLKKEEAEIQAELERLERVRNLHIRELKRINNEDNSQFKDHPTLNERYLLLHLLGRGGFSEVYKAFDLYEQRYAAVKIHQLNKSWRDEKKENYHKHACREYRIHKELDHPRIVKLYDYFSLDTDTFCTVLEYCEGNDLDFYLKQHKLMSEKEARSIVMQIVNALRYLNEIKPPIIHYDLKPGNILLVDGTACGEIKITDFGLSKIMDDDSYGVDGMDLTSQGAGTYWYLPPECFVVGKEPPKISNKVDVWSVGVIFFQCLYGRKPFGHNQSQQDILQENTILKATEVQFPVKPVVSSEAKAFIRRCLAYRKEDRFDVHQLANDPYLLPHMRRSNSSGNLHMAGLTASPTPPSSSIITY
Chain of UniProt P78356 (whole entry, looked up): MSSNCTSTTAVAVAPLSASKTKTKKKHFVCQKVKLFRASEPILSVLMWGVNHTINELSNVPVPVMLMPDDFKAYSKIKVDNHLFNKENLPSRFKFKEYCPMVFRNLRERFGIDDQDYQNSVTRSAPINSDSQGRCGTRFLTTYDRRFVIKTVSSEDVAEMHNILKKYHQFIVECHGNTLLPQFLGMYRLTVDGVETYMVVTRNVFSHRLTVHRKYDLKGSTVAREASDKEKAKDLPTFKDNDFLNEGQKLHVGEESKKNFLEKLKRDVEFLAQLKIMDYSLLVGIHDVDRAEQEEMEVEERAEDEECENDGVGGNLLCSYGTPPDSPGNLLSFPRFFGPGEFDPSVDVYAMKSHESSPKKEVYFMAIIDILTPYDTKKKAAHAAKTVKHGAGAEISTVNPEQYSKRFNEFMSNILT

Study 1
Compound: CC(C)n1cnc(-c2ccc(F)cc2)c1-c1ncc(C(=O)Nc2ccc(N3CCN(C)CC3)cc2)[nH]1
Method: phase 2a clinical trial
Host: patients with idiopathic pulmonary fibrosis
Measurement: patients with treatment-emergent adverse events
measured: left ventricular dysfunction; 30 mg once daily, Grade 4: 0%
measured: lumbar vertebral fracture; 30 mg once daily, Grade 2, maximum intensity: 0%
measured: aspartate aminotransferase increased; dose not given, Grade 4, all drug arms total: 0%
measured: carbon dioxide decreased; dose not given, Grade 2, all drug arms total: 0%
measured: electrocardiogram QT prolonged; 30 mg once daily, Grade 2: 0%
measured: metabolism and nutrition disorders (SOC); dose not given, Grade 3, all drug arms total: 0%

Study 2
Compound: O=C(NCc1ncc(C(F)(F)F)cc1Cl)c1ccc2c(c1)C1(CCS(=O)(=O)CC1)[C@@H](C1CC1)N2S(=O)(=O)c1ccc(F)cc1
Observed: cell-free assay
Method: competition with immobilised ligand
Tested at: 1 µM
Measurement: remaining binding
TNIK (Homo sapiens, UniProt Q9UKE5): 71%
MARK3 (Homo sapiens, UniProt P27448): 100%
TLK1 (Homo sapiens, UniProt Q9UKI8): 100%
MAPK10 (Homo sapiens, UniProt P53779): 73%
GRK7 (Homo sapiens, UniProt Q8WTQ7): 65%
PIK3CA (Homo sapiens, UniProt P42336, E545A): 90%
PIP4K2B (Homo sapiens, UniProt P78356): 89%
IRAK4 (Homo sapiens, UniProt Q9NWZ3): 90%
EPHA3 (Homo sapiens, UniProt P29320): 67%

Study 3
Target: Tyrosine-protein kinase JAK2 (JAK2, Homo sapiens, UniProt O60674)
Chain of UniProt O60674 (whole entry, looked up): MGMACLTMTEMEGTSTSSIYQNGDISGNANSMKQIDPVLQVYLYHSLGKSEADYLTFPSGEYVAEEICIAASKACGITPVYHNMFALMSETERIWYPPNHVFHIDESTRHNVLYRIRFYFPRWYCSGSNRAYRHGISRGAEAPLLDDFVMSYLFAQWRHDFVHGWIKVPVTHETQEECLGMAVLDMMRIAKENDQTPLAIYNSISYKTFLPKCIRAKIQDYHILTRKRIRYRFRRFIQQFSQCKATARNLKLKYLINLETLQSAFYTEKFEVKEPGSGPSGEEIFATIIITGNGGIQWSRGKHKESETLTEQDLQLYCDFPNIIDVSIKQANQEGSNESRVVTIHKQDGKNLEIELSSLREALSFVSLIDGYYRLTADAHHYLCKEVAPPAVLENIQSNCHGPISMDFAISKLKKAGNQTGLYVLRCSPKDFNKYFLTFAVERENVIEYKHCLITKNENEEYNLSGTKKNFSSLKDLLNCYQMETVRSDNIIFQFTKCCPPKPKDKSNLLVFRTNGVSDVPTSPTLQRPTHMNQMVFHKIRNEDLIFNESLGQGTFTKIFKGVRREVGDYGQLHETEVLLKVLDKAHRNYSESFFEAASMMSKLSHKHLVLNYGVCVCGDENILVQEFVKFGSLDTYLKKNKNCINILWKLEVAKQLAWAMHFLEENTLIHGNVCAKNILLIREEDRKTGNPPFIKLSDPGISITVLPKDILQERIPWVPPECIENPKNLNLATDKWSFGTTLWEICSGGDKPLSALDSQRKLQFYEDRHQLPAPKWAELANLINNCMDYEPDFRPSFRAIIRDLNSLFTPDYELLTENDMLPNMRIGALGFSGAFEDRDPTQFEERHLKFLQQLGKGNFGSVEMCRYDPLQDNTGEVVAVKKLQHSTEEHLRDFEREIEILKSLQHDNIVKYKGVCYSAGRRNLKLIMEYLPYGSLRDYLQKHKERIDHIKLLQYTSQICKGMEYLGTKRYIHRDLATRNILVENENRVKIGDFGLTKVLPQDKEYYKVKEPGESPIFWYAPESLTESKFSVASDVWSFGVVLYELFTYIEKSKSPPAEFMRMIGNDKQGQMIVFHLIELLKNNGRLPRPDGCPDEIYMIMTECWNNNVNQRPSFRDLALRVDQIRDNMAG
Observed: enzyme activity
Action: inhibitor
Tested at: 0.5 µM
Relative to: control
Measurement: remaining activity
O=C1C(Cl)=C(N2C(=O)CCC2=O)C(=O)c2ccccc21: 104%
Cc1cn(-c2cc(NC(=O)c3ccc(C)c(Nc4nccc(-c5cccnc5)n4)c3)cc(C(F)(F)F)c2)cn1: 100%
CN(C)C[C@H]1CCn2c(c(C3=C(c4cn(C)c5ccccc45)C(=O)NC3=O)c3ccccc32)C1: 98.6%
Nc1cccc(-c2cc3c(Oc4cccc(O)c4)ncnc3[nH]2)c1: 85.4%
c1ccc(-c2cnc(Nc3ccc(OCCN4CCCC4)cc3)s2)cc1: 92.7%
CN([C@@H](Cc1ccc(OS(=O)(=O)c2cccc3cnccc23)cc1)C(=O)N1CCN(c2ccccc2)CC1)S(=O)(=O)c1cccc2cnccc12: 96.6%
CCN(CC)CCNC(=O)c1c(C)[nH]c(/C=C2\C(=O)Nc3ccc(Cl)cc32)c1C: 54%
Cc1nc2cc3nc(-c4cccs4)cnc3cc2n1C: 106%
N#Cc1c(NC(=O)c2cccc3ccccc23)sc2c1CCCC2: 103%
COc1cc2c(cc1OC)-c1[nH]nc(Nc3cccc(F)c3)c1C2: 107%
Ic1cccc(CSc2nnc(-c3ccncc3)o2)c1: 107%

Study 4
Host: human
Sample: microsomes or S9
Tested at: 2 µM
Time: 0.5 h
Measurement: remaining compound
O=C(O)c1cc2ccc(Cl)c(Cl)c2[nH]c1=O: 62.9%
CCc1c(C(=O)c2cc(F)cc(F)c2)n(C/C=C/c2ccccc2)c(=O)[nH]c1=O: 42.6%
COc1ccc(-n2c(-c3ccc(OCCN(C)C)cc3)nn(Cc3ccccc3)c2=O)cc1: 47%
COc1ccc(CCNC(=O)C2Cc3ccccc3CN2S(=O)(=O)c2cccs2)cc1OC (centres unmarked): 0.0993%
Cc1cc2c(c(O)c1-c1c(C)cc3c(c1O)C(=O)C(O)C3C(C)C)C(=O)C(O)C2C(C)C (centres unmarked): 55.7%
COc1ccc(CC(=O)O)cc1Nc1ncc(Cl)c(Nc2ccccc2S(=O)(=O)C(C)C)n1: 61.7%
O=C(NCCCn1cccn1)c1c(OCC2CC2)cc(=O)n2c1CCCCC2: 78.3%
CNC(=O)Nc1cc(S(=O)(=O)C(C)C(=O)O)c(Cl)cc1F (centres unmarked): > 99%
Cc1nnc(-c2nnc(N3CCN(C4CCCCC4)CC3)c3ccccc23)o1: 72.3%

Some of these lines once more (study 4):
COc1ccc(CCNC(=O)C2Cc3ccccc3CN2S(=O)(=O)c2cccs2)cc1OC (centres unmarked): 0.0993%
Cc1cc2c(c(O)c1-c1c(C)cc3c(c1O)C(=O)C(O)C3C(C)C)C(=O)C(O)C2C(C)C (centres unmarked): 55.7%
COc1ccc(CC(=O)O)cc1Nc1ncc(Cl)c(Nc2ccccc2S(=O)(=O)C(C)C)n1: 61.7%
O=C(NCCCn1cccn1)c1c(OCC2CC2)cc(=O)n2c1CCCCC2: 78.3%
